Assay results gathered from unrelated publications.
A part holds a random share of what one study measured. Changes are numbered by the printed parent chain.

Set 1
Target: RNA binding protein fox-1 homolog 2, RRM domain, GST-SBP tag (RBFOX2, Homo sapiens, UniProt O43251-10, residues 100-194)
Technique: RNA Bind-n-Seq
Form: RNA
Matrix: in vitro
Concentration: 365 nM
Notes: natural RNA segment, single round, ends assumed
Baseline: no-protein control
Direction: higher = stronger binding
Constant ends, left off below: GGGAGUUCUACAGUCCGACGAUC … UGGAAUUCUCGGGUGCCAA
Residues (chain): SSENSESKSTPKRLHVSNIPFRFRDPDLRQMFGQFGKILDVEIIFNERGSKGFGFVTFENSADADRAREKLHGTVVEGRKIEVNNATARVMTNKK
Strand	RBNS enrichment (R)
AACUCUCUUGGCAGAUGUGUGAAAGGAUUCUUGCUUGAUCAAACACUAAGUAUUUUUUUGGUUCUUGUUUUUCUUUCAAAUAGCCAGGUUUUUUUCUUUUGGUAUUUGCA	2.16
GCGCCCCAGGUCUCCCCUACUCCGCUCACCCCGCAGUUAAUGGCAAACGAAUAAAUAAAUGAGGCGGCCUCGGAGUGAGGGGUGCUGGAGGACUGGCAGCCAGGCCACGA	0.422
CUCAGUUUGCUGUAAGAUUGUAUUCUGUAGAUAUGUUUCCAUGUACAUAAAGGAAAAUAUAUAUCAGAGUUAUAUUUUAAUUUUUAUUCUAAAUGGAAAAAAAACCCUUU	0.54
ACCCUCUCUCUCUCAAGCUGCCACAUGUAACGCCCUUGCUGCUUCUGUGUGUGGGUGAUUGGAUGUGGGGGUGGGGCCCGUGGAGAGCCGGUGCCCCUCCCCAUCUCCCC	0.425
GUUGCCAGGCGCAGAGGGGAGGCCAGCCCUGCCCUCAGGACCUGCCUGACCUGCCAGUGAUGCCAAGAGGGGGAUCAAGCACUGGCCUCUGCCCCUCCUCCUUCCAGCAC	0.285
GAUGUCCUCUGGUCUUUUCCAUCUUCGCUUUCUAUGACUGUGGAAUAAAUGUUCAGACAGAAACUUCCUUUCCGUUGUGUUGCUGGCAUUCACUAGGGAUUAGAAUACUU	0.501
UCUGGGGAAGGAAAGGAGACUAGAGCAGCUGGUGUGCUCACCCCUCCCUAGUCACCUCCAUUAACCACAGACUAUGUAGCGCUGGCCCUAGCCUCUGGCAGAGCCUGUUC	0.227
CACCCCCACAGACAUGGACUGGCUAUGAUCCUAGCUGGAAUAGCAGCACCUGCCUUUCCCUCCUGGGUCUCCUUGCCGCGUGCUGAGCCGAGGCAGGCCUGCAGGGCCUG	0.259
UGUUGUAUUAUAACAGUAUUACAUGUCAACGGUGUGGUUAUGACCUUUAUUUAUAUAAAAACCAAAUAUUUAGUCAAUUUACCGUGUCUUAAUUUAAUCUUUGUACACCU	0.665
UUUGCCCCACCUUGUCUUGUUGAUGAACAAUAUUAUGAAGCCUGCAGUCAUUCUCUCUGUACAUCAGAGCUUAGUUCGAAUGGAAUCAUGAAAAUCUCUGAUUCUGACCU	11.6
AUGGUGGAGUUGGCAUCUUGUAACUCUCCUUUCUCCUUUCUUCCCCUUUCUCUGCCCGCCUUUCCCAUCCUGCUGUAGACUUCUUGAUUGUCAGUCUGUGUCACAUCCAG	1.52
UCUCCCCGCGAGUGCAGUCGGAUGCCGUUGUCCCCAAGGGCCAGGCCGAACUCGCCCCACACCUGCGGGCGCCUGGCUGCCGACGCCGGUGGAGGCCACGCCGUCGGUCG	0.233

Set 2
Target: PABPC1L2, full length, GST fusion (mouse, UniProt A0ABA7IW68)
Technique: RNAcompete
Form: RNA
Matrix: in vitro
Concentration: 20 nM
Notes: 7-mer, probes averaged, single round
Baseline: mean of 7-mers
Direction: higher = stronger binding
Residues (chain): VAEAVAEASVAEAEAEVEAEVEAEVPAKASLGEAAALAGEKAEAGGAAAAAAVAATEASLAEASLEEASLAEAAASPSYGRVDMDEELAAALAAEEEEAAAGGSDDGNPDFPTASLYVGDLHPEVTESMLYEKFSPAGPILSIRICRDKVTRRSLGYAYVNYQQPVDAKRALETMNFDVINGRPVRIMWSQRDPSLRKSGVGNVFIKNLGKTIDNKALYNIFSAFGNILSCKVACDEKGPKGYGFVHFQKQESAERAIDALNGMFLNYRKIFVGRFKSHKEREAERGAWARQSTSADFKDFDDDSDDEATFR
Strand	7-mer Z-score
ACAGCUC	-0.184
AAAAUCG	4.73
GUAACCA	-0.0609
GCAAUAG	-0.0409
UUAUAUA	-0.188
UCGCCUU	-0.405
AGGUUGC	-0.0681
CGUGAUG	-0.211
ACCUAGA	0.0406
UGGGUUU	-0.333
CCACAUA	-0.179
UGACAGA	-0.00652
GUACAAG	-0.0971
GCCAAUG	-0.128
AGUCGCU	-0.329
GACGAGU	-0.139

Set 3
Target: ABI1, truncated, D143A, DHFR fusion (Arabidopsis thaliana)
Technique: DHFR PCA, deep sequencing
Matrix: yeast
Notes: methotrexate growth selection, single substitutions
Added: (+)-ABA 710 µM
Baseline: wild-type fitted maximum
Direction: higher = stronger binding
Starting sequence: PYL1, truncated, DHFR fusion (Arabidopsis thaliana); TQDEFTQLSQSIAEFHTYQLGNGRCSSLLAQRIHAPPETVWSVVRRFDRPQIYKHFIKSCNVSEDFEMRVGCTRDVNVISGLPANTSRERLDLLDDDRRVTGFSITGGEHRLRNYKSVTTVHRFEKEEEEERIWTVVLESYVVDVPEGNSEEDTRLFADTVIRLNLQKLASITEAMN; partner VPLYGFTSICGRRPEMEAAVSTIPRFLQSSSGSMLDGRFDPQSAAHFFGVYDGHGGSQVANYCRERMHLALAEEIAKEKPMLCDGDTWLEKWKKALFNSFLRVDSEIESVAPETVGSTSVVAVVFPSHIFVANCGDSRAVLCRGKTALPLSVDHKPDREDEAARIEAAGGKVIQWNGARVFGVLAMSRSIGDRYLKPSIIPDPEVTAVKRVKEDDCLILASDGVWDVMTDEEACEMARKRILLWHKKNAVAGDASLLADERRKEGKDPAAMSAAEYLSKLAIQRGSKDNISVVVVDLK
Change	relative binding score
D96E	111%
V137I	96.1%
L156H	95.3%
G81I	8.73%
L91R	11.6%
K126Q	109%
G148C	89.7%
V70D	83.7%
A84T	46.9%
N165P	7.14%
S11Y	99.4%
F56Q	38.2%
V70F	76%
D95M	98.5%

Set 4
Target: CCNA1, cyclin fold, Cln2 fusion (human)
Technique: yeast growth competition, sequencing
Matrix: yeast
Notes: strong parent motif
Baseline: not given
Direction: higher = stronger binding
Starting sequence: CCP110 docking peptide (human); EKVKRRLDLDIDG
Change	normalised enrichment score
V3A	0.0973
E1A	0.751
K2A	0.477
R5A L7A	0.244
R5K	0.246
L7A	0.0413
R6A	0.478
I11A	0.43
D10A	0.76
R5K L9F	1.61

Set 5
Target: RING finger protein unkempt homolog, zinc fingers 1-6, GST-SBP tag (UNK, Homo sapiens, UniProt Q9C0B0, residues 30-357)
UniProt Q9C0B0, sequence (30-357, looked up): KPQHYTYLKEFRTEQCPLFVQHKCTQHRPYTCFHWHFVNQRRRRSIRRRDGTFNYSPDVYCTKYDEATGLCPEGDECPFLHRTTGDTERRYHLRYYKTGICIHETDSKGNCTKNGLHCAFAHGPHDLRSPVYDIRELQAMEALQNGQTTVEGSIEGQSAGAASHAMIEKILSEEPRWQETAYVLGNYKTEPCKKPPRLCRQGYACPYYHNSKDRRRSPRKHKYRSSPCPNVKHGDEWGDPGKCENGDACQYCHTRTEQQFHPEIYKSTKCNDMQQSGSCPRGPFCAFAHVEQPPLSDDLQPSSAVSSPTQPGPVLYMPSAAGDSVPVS
Technique: RNA Bind-n-Seq
Form: RNA
Matrix: in vitro
Concentration: not given
Notes: RNA with constant flanks, human and mouse sites, ends assumed
Baseline: input RNA pool
Direction: higher = stronger binding
Constant ends, left off below: GGGAGUUCUACAGUCCGACGAUC … CAACAGAGGAUUGAGCAUCA
Strand	bound/input enrichment
UUGGCAGAAGGUGUCAUUUUAAGACGAGUAGGCGAAGCAAGGACUCAACACGGAGGUAGUCACGUUUCCCGGAAAUCCGAACACUUGAGUGUCAGACCACAGACUGCGUUGGAAGAAAAC	0.185 ratio
AAGGCGCGGAUAAAAGCAAAGGCAAUAGCGAUAAACACAUUUUUGCCAAAGAAUGGAUUUAGACCUCUGGACAUGAACCUUUAUACCCAGCAGCGCUAUGCUACAUCGUUUUACUUACCU	0.212 ratio
GGUUGUUUCAAUCUAACUGUCAAAGGUCAUGCUAAAUGUGUAGAAGUAGUGAAAACUUUUAACUUGCCAUUGCUGAUGCUCGGUGGAGGAGGCUACACAAUCCGGAAUGUUGCCCGAUGU	0.629 ratio
AGAAGCUUCCUAAGGAACAAGCAAGUUGAAUAGAGAAAAUAGUGAUCAAUAAUAGGCAUUUUAGUGGUCUUUUUAAUGUUUUCUGCUGCGGAACAUUUCAAGAUUUAUUGAUUUCCUCCU	7.42 ratio
UAGGACACAUUCCCAGAAGAGCGGAAAGAUCAUUGACGUGGAACUACACACGAAGUGUAAUUAGUGGGGGAAAAAAUAUUUUUUAAACAAAGGAUAUAACCAUAUUUAGUUGUACAGUAA	2.47 ratio
ACUGAAAAUAAAGAUAUUUAUUGGAAAAAUGUGAGAGAGAAGUUGUCAGCAGGAGAGAGCAUUAGUUUGGAUGAAUUCAAGUCAUUUUGCCAUUUUACAACCCACUUGGAAGACUUUGCU	0.89 ratio
GUAUGGUUUUUGCUUACCCUUUCAAGUCACAGGUAAAUGUUUCAUAAGGAAAUCACAGUUUUUAGAUUCCCUGUUAUUGCUAGUGUGGGACCUGUAGCUGUGGGGUCUGACAUAUUUAUU	0.66 ratio
GAGUGCUUAAGCUGCCAACAGUUAGAAGAUGCUAUUUAUUUGUGUCUGUAAGUUUGUACAUAGUAAUGCCAGCCUUGUUGCUGAAUUUUUUAUUUGGGGGGAGAUGACUUUGAAUUUUGU	10.6 ratio
CACUGGAGACUGAGCAAAAGGAAAUGUGAAACGAACAACAUGAUGGAAUAUGUCAUCCUCAUAGAAUUUUUACCAAAGACACCGAUUUUUCGACCAGAUUAGCAUUUGCUUUAUUUAUAG	22.3 ratio
AUGGCCAAUGUGCUUUGUAACAGAGCCAGACUGGUUUCCUAUCUCCCAGGAUUUUGCUCUUUAGUUAAAAGGGUUGUCAAUCCCAAAGCCUUUUCGACUGCAGGAUCAUCAGGUUCGGAU	0.124 ratio
CUUCUGAAGGCAGCUGCAGGUCCAUCCCAUUGACAUAGCUGCUAUGGCACAGGAGCUUUGUAGCUGUGGAACCAACACUGCUUUUGCAUACUGUGUAGAAGAAUUCUUUAGGAGUGGGGA	0.488 ratio

Mixed results
Molecule	target	test	test system	setting	how to read	measurement	value
PhoQ, residues 284 288 289 292 302 303 AQGLTV	PhoP, residues 12 14 15 18 19 LHSVW (Escherichia coli, UniProt P23836)	Sort-seq, measured: YFP reporter	E. coli	PhoQ-PhoP variant library, added: 10 µM Mg2+	baseline: high Mg2+ state, higher = stronger signaling	fold induction	7.97

For quick reference, copied from above (set 3):
Change	relative binding score
A84T	46.9%
L91R	11.6%
S11Y	99.4%
V137I	96.1%
N165P	7.14%
